Published values collected from several papers.
Every numbered part comes from another study and shows a few of its results, in no order. Substitutions count along the parent as printed.

Series 1
Target: Hepatocyte nuclear factor 3-alpha (Foxa1, Mus musculus, UniProt P35582, residues 1-468, full length assumed)
Method: EMSA with sequencing
Form: double-stranded DNA, one strand shown
Sample: in vitro
Concentration: 10 and 20 nM
Setting: whole designed probe, mean of two concentrations, ends assumed
Reference: negative control set to 0
Reading: higher = stronger binding
All sequences stand within: GTGAGCGGTGCCCATTGATGGGGAAC … TTTCACTGGGATCGTGGGGAC
Residues (chain): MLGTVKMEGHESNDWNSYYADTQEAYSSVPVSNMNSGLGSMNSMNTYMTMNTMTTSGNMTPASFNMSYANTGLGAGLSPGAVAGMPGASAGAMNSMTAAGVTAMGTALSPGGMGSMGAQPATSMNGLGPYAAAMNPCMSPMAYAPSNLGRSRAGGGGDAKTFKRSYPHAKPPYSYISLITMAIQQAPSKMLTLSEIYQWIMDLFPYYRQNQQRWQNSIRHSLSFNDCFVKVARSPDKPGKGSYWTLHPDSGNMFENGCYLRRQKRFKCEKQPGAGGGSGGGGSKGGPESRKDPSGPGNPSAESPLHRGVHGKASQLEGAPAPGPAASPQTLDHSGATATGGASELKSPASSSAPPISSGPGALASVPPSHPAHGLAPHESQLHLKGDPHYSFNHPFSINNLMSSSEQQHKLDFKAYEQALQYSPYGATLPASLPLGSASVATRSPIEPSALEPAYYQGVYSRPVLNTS
`ATCTTCCCCCTCTTCCTTGCCCCACCAGCTCACCTACGGGGGTTATTTGCAGATAGGAAAATAAATAAAGCCGGCATTCGTTAACCCTCTTCTGGCGCAAACTGCTGTTTGCTCTGCATCTAACATGGTCCTTACGCGACGCCAGGCTCCGGGAGAGCAAAGCACCGTGTCAGGCGCATGATCCGGGCTCGCC`: “normalised bound fraction” 0.348 ratio.
For `GCCTGGAAGAAAGGGGCTGTTTTCCTTTTCACTATTATTATTTTAAACTTTGATGGGCTGCTGACGTCAGCAAATATGCTTGACGCCTGTAAAGCAAATAAGCCACATCACAAGCAGAAAGCCTGTGGGATTTTCTGGTGCCCTATTTCTAGAACCTTCCCTGTTCTGACCATTTGAAGGTGCTTATTTAGTC`, “normalised bound fraction” read 0.308 ratio.
`TTATGTATACAGAATGACTGACTACAACTATGGCAAAAACAAACAACAACAACAACAACAACAACAACAACAAACCCTCAATAGAGGAAAAAGTAAACAAGAAACAGATCAAATTATTAACACAATGACATTTGAATGGTGACAAAATTGGTGATTTTAGTTTTTCTTTCCTTTTAAAATGTTTTTAAAGCAC`: “normalised bound fraction” 0.467 ratio.
`ATCACTGGTTCTCAAAGCAAAGTTTACAAAGACCAGGGTCATCCTGAGAGTATGTGGGCAGATTACATGGTGCACTTGACCCTTGCTCCTTTGAGATTACACAGGCAGAGTCAGGCCAGACTACATGCCAGGGTGACCTTAAGAGAGAAAAGAGGCCAGGCATGGTGGCTCATACCTGTAATCCTAGCACTTT`: “normalised bound fraction” -0.00342 ratio.
`ATTCATGTGAAAATTACGATAATAACACATATCTCACCCAGAAGAAAAAAAAATTGTGAAGAAACTTAGAAGTTCTAAAAATATAAGGTATAATGTAAACATGAATAACAATAACATTTATAGCTTGATGTTTTTTCAGGCCTTGTAATTTTCAAAATATGTGTATATAGTTAGCTGATTAGAAGAAAATATG` — result for “normalised bound fraction”: 0.371 ratio.
Under “normalised bound fraction”, `TTTAATTTTGCCCTATGTAAACTTGCTCAGCTGTAAACAAACAAGCCATCATGGAGACTAGATCAAATAATAAGCTCGTTGACTCCACGCTAGAGTAAACAAGGACATCAGAGTAAGTCATAGCCCTACAGATGTTAGACAAAAGGAAGGATTTTTACGTCTTTATTGATGTAAATTACATACTGTAGGAGTC` is recorded as 0.477 ratio.
`GATAGAGAAGATGTTTCTAAAGGGACAAGAAAGAGTTGGATTTCAGAAAACAAATTACATATATCTAGTCCTATATGCCTTTAAAAAATTCTTGTTTACTTTTCTTTTCTGTCGTACTACACAGAGCCTGTGTAGTAAGTTTTCCAGGTCTGTTTTTTTGTTGTTGCTGTTGTTTTGTTTTTAATTGGATCAT` — result for “normalised bound fraction”: 0.465 ratio.
Under “normalised bound fraction”, `ACAACATCAGGTCATTATTTATCCACTTGTCCTTTTTTTTTTTATCATTCCTTTGAACTGCCTGCATTTGCTTATCGTGATATTTCTCAGTCTGTAATCTGCCCGAGTAGCTGTTCTATTTCTCTAAATAGAGTCTTAGGTCATTTTATTATCCAGAATTGTAAGTCATCAGAATGCACCCATCTGTTGTCCT` is recorded as 0.0601 ratio.

Series 2
Target: RNA binding protein fox-1 homolog 2, RRM domain, GST-SBP tag (RBFOX2, Homo sapiens, UniProt O43251-10, residues 100-194)
Method: RNA Bind-n-Seq
Form: RNA
Sample: in vitro
Concentration: 365 nM
Setting: natural RNA segment, single round, ends assumed
Reference: no-protein control
Reading: higher = stronger binding
All sequences stand within: GGGAGUUCUACAGUCCGACGAUC … UGGAAUUCUCGGGUGCCAA
Target sequence (chain): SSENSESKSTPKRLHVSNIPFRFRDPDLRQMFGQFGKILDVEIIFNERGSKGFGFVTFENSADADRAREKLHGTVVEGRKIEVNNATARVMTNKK
`UUGCUAACAUGCUCACAAAUGUGAGAGAAGAGUCAUUAAAAGCUUUACUUACUGGGUCAGUGCGUCAUUGACUCCUUUCUGUGUUUUGCCCAAUAAAUUAAUAAAAGACU` — result for “RBNS enrichment (R)”: 0.389.
`UACCCUAACCCAUCACGCCCUGGUGAAGCCCCCAAGGCCUGCUGCUUUGGGGUGUGGCCUGUGACUGUGUUUCCCAGGUGGGGACCAGAAGAUGUCUGAGGUCCUCCUGA` — result for “RBNS enrichment (R)”: 0.229.
`UGUCCUUGCGGCCCUGUCUUCUGAGGUUCUCUGUCUGGGGUUGGCUCUCUUAACCCUUUCUCUGCUCCCAGCCUGCCUCACCAGGGAAGGUUGGAGGGGCCUCCCUCUGG` — result for “RBNS enrichment (R)”: 0.658.
`UUGUUUUUCAGAAAUUCCUGGGUUUCCUGUUAAAAAAUCUUAAAGCCCAACCUUAGGAAUAUAGUGCCCCAAAAGGCGGAUGCUUCUUCCAUUAUCUUAUUUUCUUUGAU` — result for “RBNS enrichment (R)”: 0.676.
`UCUUGAGUCUCCACAUCAGUCUCACACCAGGGAACUUGGGGGUCCCCCGUUAAACUACAGCUGACCCUGGGCCUCAGGGCGGGAUGGUCCCAAGGUGAGCUCCGUGGACA`: “RBNS enrichment (R)” 0.508.
Under “RBNS enrichment (R)”, `UAACACUUACCGACUUUUUUUGGUUUGGAAACAUAUUACCACGUCUUAAUAGGAUGGUGCCCAUAUAGGUGAGCAUCCCUUUAGAUCAUGGGAACCAGCAGACUGCAUUC` is recorded as 0.375.
Under “RBNS enrichment (R)”, `UCUUCCCUCCCACUGAACACUAUUCCCAUAGUUUCCUUUUGCUCCCCAGCCUGUAAUUCUAAGUUCAACAAAACAGUUGUCAACAAAAGUGACUGAGGCUUCCACCAGAG` is recorded as 1.03.
Under “RBNS enrichment (R)”, `GAGGGGGAAAUGCCUUUGCAGCUCCAUUUAGUUGUUUGGAGACUGCUCCUGGGAUGCUAACCUGAUGGCCAUAGACACGGUGGGCUGGAGGCGUGGCUGGAUCUGCCCAA` is recorded as 0.779.
`CUUUUCUCACUCUAGCGCCAAUACUGGCCUGAAGGCUAGAUCCCCAGCGAAAUUCUUGUUCAGGCUGGGUCUGUCGACUUUGACUCUGCUAUUUAUAGAGCCAAUGUGGG` — result for “RBNS enrichment (R)”: 0.329.
`CUAUAGACUGUUUUAAGAGUUUUGGGGUUUUUUUAAUUGGGUGGUUUGUAACCCCUUCAGCCUAGCCUCUCUGCCCAUUUAUUUCCAACCCCAACAGACACUGACAGGGU` — result for “RBNS enrichment (R)”: 0.374.
`GCUCUAUCCCAGUCGCCCAUUAGCUUGAUUCAAACAAAGCCCCAGCAGGCCUUUGCGUUUUUAUCCUUCAUAACCUUCAUCUUAAUUUGAACUUGUAGCUUGGACUUUAA` — result for “RBNS enrichment (R)”: 0.588.
`CCUGUUGAAGUCACCGAGUCAGCUGAAUAAAGACUGCGCACAGGAGAAUUGCCCUAUACCUGAGCCUCAACCUUCUGGGGGAAGGGAACUAGAUAACAUGCUUUGUGUGU`: “RBNS enrichment (R)” 0.462.

Series 3
Target: CCNE1, cyclin fold, Cln2 fusion (human)
Method: yeast growth competition, sequencing
Sample: yeast
Setting: weak parent motif
Reference: not given
Reading: higher = stronger binding
Starting sequence: RB1 docking peptide (human); PKPLKKLRFDIEG
For `PKPEKKLRFDIEG [L4E]`, “normalised enrichment score” read -0.336.
For `PKPIKKLRFDIEG [L4I]`, “normalised enrichment score” read 0.807.
Under “normalised enrichment score”, `PKELKKLRFDIEG [P3E]` is recorded as 0.317.
Under “normalised enrichment score”, `PKPLKKLRFDIEL [G13L]` is recorded as 0.326.
Under “normalised enrichment score”, `PYPLKKLRFDIEG [K2Y]` is recorded as 1.11.
`PKPLKKLRFDMEG [I11M]` — result for “normalised enrichment score”: 0.0297.
For `PGPLKKLRFDIEG [K2G]`, “normalised enrichment score” read -0.104.
`PKPLKKLRFCIEG [D10C]` — result for “normalised enrichment score”: 0.417.
`IKPLKKLRFDIEG [P1I]` — result for “normalised enrichment score”: 0.577.
`PVPLKKLRFDIEG [K2V]` — result for “normalised enrichment score”: 1.05.
Under “normalised enrichment score”, `PKPLKKLRFDIMG [E12M]` is recorded as 0.466.
Under “normalised enrichment score”, `PKPLKKLCFDIEG [R8C]` is recorded as -0.158.
`PKPLKKQRFDIEG [L7Q]` — result for “normalised enrichment score”: -0.535.
`PKPLKKLRFDHEG [I11H]`: “normalised enrichment score” 0.22.
Under “normalised enrichment score”, `PKPLKYLRFDIEG [K6Y]` is recorded as -0.369.
`PKPDKKLRFDIEG [L4D]`: “normalised enrichment score” 1.04.
Under “normalised enrichment score”, `PKPLKKLRFDGEG [I11G]` is recorded as 0.414.
For `PKPLKKDRFDIEG [L7D]`, “normalised enrichment score” read -0.741.

Series 4
Target: Max dimerization protein 1, bHLH-zipper, MAX partner unstated (MXD1, Homo sapiens, UniProt Q05195, residues 56-136)
Method: protein-binding microarray
Form: double-stranded DNA, one strand shown
Sample: in vitro
Concentration: not given
Setting: k-mer, scored over probes, only values ≥0.25
Reading: higher = stronger binding
Construct (chain): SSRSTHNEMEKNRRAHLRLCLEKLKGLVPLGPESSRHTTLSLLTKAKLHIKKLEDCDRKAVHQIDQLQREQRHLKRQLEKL
For `AGTCACGC`, the E-score was 0.374.
With `CAACCACG` the E-score was 0.351.
`CGTGCGGC` has an E-score of 0.315.
For `ACGCTACA`, the E-score was 0.265.
The E-score of `CCACCCCA` is reported as 0.386.
With `CACGAAAC` the E-score was 0.264.
`GGGGGCAC` has an E-score of 0.3.
The E-score of `CACCCCTC` is reported as 0.311.
The E-score of `CCCACGCA` is reported as 0.251.
For `ACGCGGAT`, the E-score was 0.281.
`ATGCATGG` gave an E-score of 0.357.
`AACATGTG` has an E-score of 0.477.
The E-score of `CCCCCTGC` is reported as 0.33.
The E-score of `CCGGCACG` is reported as 0.298.
`ATGTGCCG` has an E-score of 0.268.
`TGCCCGCA` gave an E-score of 0.254.
`GGTGGGGA` has an E-score of 0.296.
For `AACCCATG`, the E-score was 0.353.
`CTCGTGCC` gave an E-score of 0.335.
For `CCCCGTGA`, the E-score was 0.349.
`AACATGGT` gave an E-score of 0.306.
With `AAGCGTGC` the E-score was 0.372.
For `CACGCGAC`, the E-score was 0.403.
`CGGGGGCA` has an E-score of 0.266.
For `CATGAGTC`, the E-score was 0.271.
